Measurements from different studies.
Each line is one published result; not all experiments were run side by side. Numbers after ± are the reported error.
Mode: substrate
MIPEP: Mitochondrial intermediate peptidase (MIPEP, Homo sapiens, UniProt Q99797)
HDAC6: Protein deacetylase HDAC6 (HDAC6, Homo sapiens, UniProt Q9UBN7)
MALT1: Mucosa-associated lymphoid tissue lymphoma translocation protein 1 (MALT1, Homo sapiens, UniProt Q9UDY8)

Protein sequences, listed by entry. Tags and fused reporters are not part of them. Residues count along the entry.
UniProt Q99797, 36-713 limits assumed: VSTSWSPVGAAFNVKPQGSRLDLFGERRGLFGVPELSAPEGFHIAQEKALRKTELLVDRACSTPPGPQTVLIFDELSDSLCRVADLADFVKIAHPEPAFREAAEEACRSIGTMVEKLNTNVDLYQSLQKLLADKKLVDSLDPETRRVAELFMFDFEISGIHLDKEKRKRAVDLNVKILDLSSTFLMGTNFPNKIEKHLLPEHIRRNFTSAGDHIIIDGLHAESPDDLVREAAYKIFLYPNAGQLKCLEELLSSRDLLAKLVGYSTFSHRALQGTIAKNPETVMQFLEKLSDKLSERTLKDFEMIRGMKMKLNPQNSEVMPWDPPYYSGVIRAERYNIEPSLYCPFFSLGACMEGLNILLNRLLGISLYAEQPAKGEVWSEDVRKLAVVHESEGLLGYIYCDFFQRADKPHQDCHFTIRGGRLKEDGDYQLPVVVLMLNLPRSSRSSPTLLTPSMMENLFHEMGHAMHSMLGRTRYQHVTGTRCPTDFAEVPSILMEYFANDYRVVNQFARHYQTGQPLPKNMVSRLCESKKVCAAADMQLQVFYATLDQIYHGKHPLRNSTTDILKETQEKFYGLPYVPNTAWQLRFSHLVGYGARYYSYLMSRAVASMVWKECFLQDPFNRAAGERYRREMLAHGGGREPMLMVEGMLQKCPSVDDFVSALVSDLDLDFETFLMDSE
UniProt Q9UBN7, whole entry: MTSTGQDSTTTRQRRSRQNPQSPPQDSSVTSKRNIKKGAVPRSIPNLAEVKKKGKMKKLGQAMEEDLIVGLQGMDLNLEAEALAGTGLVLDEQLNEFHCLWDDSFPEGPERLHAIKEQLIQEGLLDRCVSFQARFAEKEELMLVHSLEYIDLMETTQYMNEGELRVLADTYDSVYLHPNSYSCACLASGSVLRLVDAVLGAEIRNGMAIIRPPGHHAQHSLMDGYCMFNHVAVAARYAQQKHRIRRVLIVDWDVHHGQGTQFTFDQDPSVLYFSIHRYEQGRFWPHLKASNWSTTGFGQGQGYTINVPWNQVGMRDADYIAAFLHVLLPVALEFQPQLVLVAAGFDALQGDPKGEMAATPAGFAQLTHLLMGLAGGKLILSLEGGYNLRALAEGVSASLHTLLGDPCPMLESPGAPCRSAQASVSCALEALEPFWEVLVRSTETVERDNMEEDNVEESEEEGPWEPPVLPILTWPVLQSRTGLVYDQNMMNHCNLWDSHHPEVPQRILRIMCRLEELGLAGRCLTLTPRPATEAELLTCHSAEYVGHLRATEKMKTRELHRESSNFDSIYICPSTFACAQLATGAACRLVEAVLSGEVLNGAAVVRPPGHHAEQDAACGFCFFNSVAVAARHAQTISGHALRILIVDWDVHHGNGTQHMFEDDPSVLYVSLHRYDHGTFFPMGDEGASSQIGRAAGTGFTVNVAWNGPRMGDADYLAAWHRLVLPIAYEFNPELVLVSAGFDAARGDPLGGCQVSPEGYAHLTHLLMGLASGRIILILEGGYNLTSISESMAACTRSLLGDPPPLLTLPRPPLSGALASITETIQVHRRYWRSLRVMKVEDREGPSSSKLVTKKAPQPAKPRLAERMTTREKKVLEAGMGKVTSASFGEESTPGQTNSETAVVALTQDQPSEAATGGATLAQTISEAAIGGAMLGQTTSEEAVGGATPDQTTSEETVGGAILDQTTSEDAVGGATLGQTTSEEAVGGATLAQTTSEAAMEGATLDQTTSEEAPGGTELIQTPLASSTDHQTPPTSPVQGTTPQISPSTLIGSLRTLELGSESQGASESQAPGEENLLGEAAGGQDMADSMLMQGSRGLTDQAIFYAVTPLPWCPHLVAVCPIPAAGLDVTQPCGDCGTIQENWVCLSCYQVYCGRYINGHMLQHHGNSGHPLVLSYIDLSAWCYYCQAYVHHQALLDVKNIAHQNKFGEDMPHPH
UniProt Q9UDY8, whole entry: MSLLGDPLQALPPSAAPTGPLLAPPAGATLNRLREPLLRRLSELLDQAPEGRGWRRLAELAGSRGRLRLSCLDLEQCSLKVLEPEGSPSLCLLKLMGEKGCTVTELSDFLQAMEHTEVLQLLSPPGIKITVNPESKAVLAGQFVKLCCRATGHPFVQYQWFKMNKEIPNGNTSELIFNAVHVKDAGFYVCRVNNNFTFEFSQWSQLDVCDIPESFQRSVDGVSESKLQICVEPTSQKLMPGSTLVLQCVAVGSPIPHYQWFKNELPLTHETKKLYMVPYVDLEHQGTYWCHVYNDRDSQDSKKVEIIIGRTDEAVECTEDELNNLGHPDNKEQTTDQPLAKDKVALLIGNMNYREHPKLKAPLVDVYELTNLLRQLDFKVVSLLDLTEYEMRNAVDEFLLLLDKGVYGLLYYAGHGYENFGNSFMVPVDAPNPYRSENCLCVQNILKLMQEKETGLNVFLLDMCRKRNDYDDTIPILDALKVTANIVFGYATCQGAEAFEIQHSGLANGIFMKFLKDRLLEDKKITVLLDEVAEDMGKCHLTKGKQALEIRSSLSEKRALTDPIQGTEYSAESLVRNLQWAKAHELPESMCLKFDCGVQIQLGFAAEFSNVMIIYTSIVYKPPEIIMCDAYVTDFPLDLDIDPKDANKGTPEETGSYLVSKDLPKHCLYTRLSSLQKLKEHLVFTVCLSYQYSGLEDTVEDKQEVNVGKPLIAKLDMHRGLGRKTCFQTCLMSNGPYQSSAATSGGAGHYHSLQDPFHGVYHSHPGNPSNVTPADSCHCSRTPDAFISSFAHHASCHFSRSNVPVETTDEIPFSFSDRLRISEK
UniProt Q9UDY8, 329-566 limits assumed: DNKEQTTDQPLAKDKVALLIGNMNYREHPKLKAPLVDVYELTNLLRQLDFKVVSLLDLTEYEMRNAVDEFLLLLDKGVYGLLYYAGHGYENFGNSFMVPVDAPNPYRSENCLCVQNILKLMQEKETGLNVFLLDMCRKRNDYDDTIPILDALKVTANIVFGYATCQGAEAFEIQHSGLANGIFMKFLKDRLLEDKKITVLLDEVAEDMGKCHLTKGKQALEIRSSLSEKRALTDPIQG
UniProt Q9NTG7, whole entry: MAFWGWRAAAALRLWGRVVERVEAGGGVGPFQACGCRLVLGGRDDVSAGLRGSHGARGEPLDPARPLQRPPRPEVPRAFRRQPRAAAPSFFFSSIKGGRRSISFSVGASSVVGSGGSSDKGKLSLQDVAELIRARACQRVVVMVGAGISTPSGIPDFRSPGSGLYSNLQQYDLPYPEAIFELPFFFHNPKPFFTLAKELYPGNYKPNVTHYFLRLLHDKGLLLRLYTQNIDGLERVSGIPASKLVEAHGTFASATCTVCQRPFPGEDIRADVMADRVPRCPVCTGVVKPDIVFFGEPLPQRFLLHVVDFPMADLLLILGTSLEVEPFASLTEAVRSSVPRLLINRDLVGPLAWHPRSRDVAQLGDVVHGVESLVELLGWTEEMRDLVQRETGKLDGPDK
UniProt Q9NY33, whole entry: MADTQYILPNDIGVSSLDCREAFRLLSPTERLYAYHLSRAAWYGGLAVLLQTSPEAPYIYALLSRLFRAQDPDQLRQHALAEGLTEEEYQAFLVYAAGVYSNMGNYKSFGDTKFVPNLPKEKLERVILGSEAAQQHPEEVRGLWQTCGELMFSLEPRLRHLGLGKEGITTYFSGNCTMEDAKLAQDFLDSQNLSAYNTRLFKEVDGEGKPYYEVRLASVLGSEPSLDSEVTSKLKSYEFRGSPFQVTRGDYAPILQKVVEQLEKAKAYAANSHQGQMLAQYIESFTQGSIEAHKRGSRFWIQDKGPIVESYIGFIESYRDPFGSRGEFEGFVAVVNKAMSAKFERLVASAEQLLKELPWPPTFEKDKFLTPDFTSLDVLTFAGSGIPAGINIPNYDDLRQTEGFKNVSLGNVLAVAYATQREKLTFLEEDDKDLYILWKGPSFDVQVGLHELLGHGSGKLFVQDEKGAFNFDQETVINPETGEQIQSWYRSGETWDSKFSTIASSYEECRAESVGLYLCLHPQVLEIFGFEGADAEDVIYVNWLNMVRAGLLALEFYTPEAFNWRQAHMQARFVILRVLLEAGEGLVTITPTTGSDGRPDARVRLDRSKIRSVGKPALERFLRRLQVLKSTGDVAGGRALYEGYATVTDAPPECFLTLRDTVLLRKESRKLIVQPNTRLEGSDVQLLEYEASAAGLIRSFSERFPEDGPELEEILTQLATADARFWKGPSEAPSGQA
UniProt O15379, whole entry: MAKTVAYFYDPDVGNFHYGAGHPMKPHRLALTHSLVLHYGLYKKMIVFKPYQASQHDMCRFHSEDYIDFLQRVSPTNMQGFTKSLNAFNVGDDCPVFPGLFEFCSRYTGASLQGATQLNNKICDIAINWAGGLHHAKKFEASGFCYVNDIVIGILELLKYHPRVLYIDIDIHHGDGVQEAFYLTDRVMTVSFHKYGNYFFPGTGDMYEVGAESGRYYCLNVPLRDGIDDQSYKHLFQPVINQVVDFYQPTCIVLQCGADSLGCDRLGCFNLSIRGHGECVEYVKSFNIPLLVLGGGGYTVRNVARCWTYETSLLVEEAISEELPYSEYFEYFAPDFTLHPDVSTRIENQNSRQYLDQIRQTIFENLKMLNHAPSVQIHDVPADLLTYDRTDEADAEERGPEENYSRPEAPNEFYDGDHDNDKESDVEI
UniProt Q9Y618, 389-480 partner limits assumed: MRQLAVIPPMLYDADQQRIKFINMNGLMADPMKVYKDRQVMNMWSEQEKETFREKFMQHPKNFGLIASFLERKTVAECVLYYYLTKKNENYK
UniProt O60502, whole entry: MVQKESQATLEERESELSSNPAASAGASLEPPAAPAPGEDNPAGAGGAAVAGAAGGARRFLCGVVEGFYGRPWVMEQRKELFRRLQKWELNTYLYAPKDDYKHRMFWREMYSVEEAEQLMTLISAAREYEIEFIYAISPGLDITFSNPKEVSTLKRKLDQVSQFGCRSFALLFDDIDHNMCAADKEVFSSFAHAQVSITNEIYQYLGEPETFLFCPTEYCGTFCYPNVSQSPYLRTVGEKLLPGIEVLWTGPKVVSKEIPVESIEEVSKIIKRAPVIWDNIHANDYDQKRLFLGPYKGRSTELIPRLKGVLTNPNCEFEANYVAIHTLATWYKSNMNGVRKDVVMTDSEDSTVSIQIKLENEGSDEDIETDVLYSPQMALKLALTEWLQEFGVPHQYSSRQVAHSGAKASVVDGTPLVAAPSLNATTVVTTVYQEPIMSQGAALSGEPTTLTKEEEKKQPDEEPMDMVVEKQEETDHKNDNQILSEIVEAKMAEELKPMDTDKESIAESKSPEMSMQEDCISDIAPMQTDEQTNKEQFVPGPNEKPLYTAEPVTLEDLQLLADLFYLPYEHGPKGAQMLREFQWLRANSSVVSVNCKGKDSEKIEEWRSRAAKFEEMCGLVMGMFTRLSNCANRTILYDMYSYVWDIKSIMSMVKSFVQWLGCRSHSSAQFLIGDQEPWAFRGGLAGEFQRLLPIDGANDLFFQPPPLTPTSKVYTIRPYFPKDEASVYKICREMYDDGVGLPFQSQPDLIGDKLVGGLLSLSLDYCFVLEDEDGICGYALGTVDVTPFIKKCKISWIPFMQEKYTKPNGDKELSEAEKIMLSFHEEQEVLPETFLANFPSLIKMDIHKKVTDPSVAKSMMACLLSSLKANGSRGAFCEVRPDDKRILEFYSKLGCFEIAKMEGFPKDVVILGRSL

SMILES | target | assay | conditions | Km
CC(=O)N[C@@H](CCC(N)=O)C(=O)N[C@H](C(=O)N[C@@H](C)C(=O)N[C@@H](CCCNC(=N)N)C(=O)N[C@@H](CCCCNC(=O)CCc1ccc(N=Nc2ccc(N(C)C)cc2)cc1)C(=O)N[C@@H](CO)C(=O)N[C@H](C(=O)NCC(=O)NCC(=O)NCCCNC(=S)Nc1ccc2c(c1)C(=O)OC21c2ccc(O)cc2Oc2cc(O)ccc21)[C@@H](C)O)[C@@H](C)O | SIRT3 (Homo sapiens, UniProt Q9NTG7) | enzyme activity, plate reader kinetics | 60 nM enzyme, together with: 500 µM NAD+ | 7.7 ± 0.21 µM
CC(C)C[C@H](NC(=O)[C@@H]1CCCN1C(=O)[C@H](CCC(N)=O)NC(=O)c1ccccc1N)C(=O)N[C@@H](CCC(N)=O)C(=O)N[C@@H](C)C(=O)N[C@@H](CCCCN)C(=O)N[C@H](C(=O)N[C@@H](CCC(N)=O)C(=O)NCCNc1ccc([N+](=O)[O-])cc1[N+](=O)[O-])C(C)C | MIPEP | FRET peptide hydrolysis | – | 3.2 µM
CC[C@H](C)[C@H](NC(=O)[C@H](Cc1ccc(O)cc1)NC(=O)[C@@H](N)C(C)C)C(=O)N[C@@H](Cc1cnc[nH]1)C(=O)N1CCC[C@H]1C(=O)O | DPP3 (Homo sapiens, UniProt Q9NY33) | radiolabelled substrate hydrolysis | 37 °C, together with: 0.5 nM iodinated substrate | 3 ± 1 µM
CC(=O)NCCCC[C@H](NC(=O)CNC(=O)[C@H](CCCNC(=N)N)NC(C)=O)C(=O)Nc1ccc2c(C)cc(=O)oc2c1 | HDAC6 | – | 25 °C | 11 ± 3 µM
CCCC(=O)NCCCC[C@H](NC(=O)CNC(=O)[C@H](CC(C)C)NC(C)=O)C(=O)Nc1ccc2c(C)cc(=O)oc2c1 | Histone deacetylase 3/Nuclear receptor corepressor 2 (HDAC3/NCoR2) (Homo sapiens, UniProt O15379+Q9Y618) | fluorogenic trypsin-coupled | pH 7.4, 25 °C | < 10 µM
CC(=O)NCCCC[C@H](NC(=O)[C@H](CCCCNC(C)=O)NC(=O)[C@H](Cc1c[nH]cn1)NC(=O)[C@H](CCCNC(=N)N)NC(C)=O)C(N)=O | HDAC6 | – | 25 °C | 370 ± 150 µM
CC(=O)N[C@@H](C)C(=O)N[C@@H](CC(C)C)C(=O)N[C@H](C(=O)N[C@@H](CO)C(=O)N[C@@H](CCCNC(=N)N)C(=O)Nc1ccc2c(CC(N)=O)cc(=O)oc2c1)C(C)C | MALT1 | fluorogenic peptide hydrolysis | 20 min preincubation, pH 7.5, 37 °C, enzyme 399 nM, citrate 0.9 M | 7.1 µM
CC(C)C[C@H](NC(=O)[C@H](CCC(N)=O)NC(=O)[C@@H](NC(=O)[C@H](CCCCN)NC(=O)[C@H](CC(N)=O)NC(=O)[C@H](CCC(N)=O)NC(=O)[C@H](CC(C)C)NC(=O)[C@@H]1CCCN1C(=O)[C@H](CCC(N)=O)NC(=O)CNC(=O)[C@H](CO)NC(=O)[C@H](CCCNC(=N)N)NC(=O)[C@H](Cc1ccccc1)NC(=O)c1ccccc1N)C(C)C)C(=O)N[C@@H](CCC(N)=O)C(=O)NCCNc1ccc([N+](=O)[O-])cc1[N+](=O)[O-] | MIPEP | FRET peptide hydrolysis | – | 0.941 µM
CC(=O)N[C@@H](CC(C)C)C(=O)N[C@H](C(=O)N[C@@H](CO)C(=O)N[C@@H](CCCNC(=N)N)C(=O)Nc1ccc2c(CC(N)=O)cc(=O)oc2c1)C(C)C | MALT1 | fluorogenic peptide hydrolysis | pH 7.5, catalytic domain, sodium citrate 0.9 M | 8.9 µM
CC(=O)N[C@H]1[C@H](OC[C@H](NC(=O)[C@H](Cc2c[nH]cn2)NC(=O)[C@H](C)NC(=O)[C@@H](NC(C)=O)C(C)C)C(=O)NCC(=O)N[C@@H](C)C(N)=O)O[C@H](CO)[C@@H](O)[C@@H]1O | Protein O-GlcNAcase (OGA, Homo sapiens, UniProt O60502) | – | pH 7.5, 37 °C, together with: 4MU-GlcNAc 200 µM competition | 1200 ± 43 µM
